Experimental data collected from several papers.
Each line is one published result; not all experiments were run side by side. Several values in a cell are separate wells, animals, samples, runs or records. Converted amounts (≈) assume the structure as drawn.

| SMILES | organism | assay | system | setting | scale | endpoint | value |
| --- | --- | --- | --- | --- | --- | --- | --- |
| CCC(C)NCC(O)(c1ccc(Cl)cc1)c1ccc(Cl)cc1 (stereo not drawn) | Plasmodium yoelii | oxygen consumption | 17XL | 2 µM |  | inhibition | 4% |
| [O-][N+]1=C(c2ccc(Cl)cc2)C2=NCCN2c2ccccc21 | Parabacteroides distasonis and Bacteroides spp. | bacterial growth |  |  |  | MIC50 | ≤ 0.06 µg/mL |
| C[C@@H](O)[C@H]1C(=O)N2C(C(=O)O)=C(S[C@@H]3CN[C@H](C(=O)N(C)C)C3)[C@H](C)[C@H]12 | Acinetobacter baumannii |  | rat, lung | intravenous bolus, 15 mg/kg twice daily |  | lung bacterial load | 2.31 log10 CFU/g |
| CC1=C(C)/C(=C/c2cc(Cc3ccc(OC(F)(F)F)cc3)c(C)[nH]2)N=C1c1ccc[nH]1.Cl | Plasmodium yoelii |  | CF1 mouse | oral, 80 mg/kg single dose, day 5 |  | parasitaemia reduction | 100% |
| Cc1c2c(nn1C)CSCc1cc(n(C)n1)CSc1cc(c3ccccc3c1)OCCCc1c(C(=O)O)n(C)c3c-2c(Cl)ccc13 | Staphylococcus aureus | label-free proteomics, refers to: hld | SA113 | concentration not given | relative to: untreated | protein level fold change | 0.0265 |
| Cn1c(=O)ccc2ccc(F)c(CCNC[C@H]3CN(c4cnc5c(n4)NC(=O)CO5)C(=O)O3)c21 | Mycoplasma spp. |  |  |  |  | MIC90 | < 0.015 µg/mL |
| COC(=O)N[C@H](C(=O)N1CCC[C@H]1c1ncc(-c2ccc(-c3ccc(-c4cnc([C@@H]5CCCN5C(=O)[C@@H](NC(=O)OC)C(C)C)[nH]4)cc3)cc2)[nH]1)C(C)C | hepatitis C virus | HCV replicon |  | 90% effect level, together with: IFN-α, ratio 1:2.5 |  | combination index | 0.6 and 1.04 and 0.81 |
| COC(=O)/C(C#N)=C1\Nc2ccccc2O1 | Tetrahymena pyriformis and Klebsiella pneumoniae | virulence in co-culture |  |  |  | IC50 | 1.78 µM |
| CSCC[C@H](NC(=O)[C@H](CC(C)C)NC(=O)[C@@H](NC(=O)[C@H](Cc1ccccc1)NC(=O)[C@H](CCCCN)NC(=O)[C@H](CCCNC(=N)N)NC(=O)[C@@H](NC(=O)[C@H](Cc1ccc(O)cc1)NC(=O)[C@H](CCCNC(=N)N)NC(=O)[C@@H](N)CCCNC(=N)N)C(C)C)C(C)C)C(=O)N[C@@H](CCCNC(=N)N)C(=O)O | Staphylococcus haemolyticus |  |  |  |  | MBC | 32 µg/mL (≈ 21 µM) |
| CCC1(C)CC(OC(=O)CSc2nnc(N)[nH]2)C2(C)C(C)CCC3(CCC(=O)C32)C(C)C1O (stereo not drawn) | Tetrahymena pyriformis and Klebsiella pneumoniae | virulence in co-culture |  |  |  | IC50 | 14 µM |
| COc1cccc(C(=O)NN(C(=O)c2cc(C)cc(C)c2)C(C)(C)C)c1C | Anopheles gambiae s.l. |  | resistant | tarsal contact, dose not given, no blood meal, without RME | relative to: control | lifespan | no effect |
| CCOC(=O)C1(Cc2ccccc2)CN(c2ccccc2)Cc2nnn(CCc3ccc(OC)cc3)c21 (stereo not drawn) | human adenovirus 2 | viral replication | HEL |  |  | EC50 | > 100 µM |
| CS(=O)(=O)CCCn1c(Cn2c(=O)n(CC(F)(F)F)c3ccncc32)cc2cc(Cl)ccc21 | respiratory syncytial virus | RT-qPCR | hospitalized infants 1-24 months, nasal swab | oral, 2, 1.5 or 1 mg/kg daily, day 4, low dose by age cohort | relative to: baseline | LS mean viral load change | -2.76 log10 copies/mL |
| Nc1ncnc2c1ncn2[C@@H]1O[C@@H]2COP(=O)(O)O[C@H]3[C@@H](O)[C@H](n4cnc5c(=O)[nH]cnc54)O[C@@H]3COP(=O)(O)O[C@H]2[C@H]1O | Zika virus | upregulated Reactome pathway, RNA sequencing, refers to: Innate Immune System (R-HSA-168249) | HFF-1 |  | relative to: ZIKV-infected untreated | fold enrichment | 2.34 |
| Nc1c(C(=O)Nc2ccc(C3=NCCN3)cc2)cccc1C(=O)Nc1ccc(C2=NCCN2)cc1 | Tetrahymena pyriformis and Klebsiella pneumoniae | virulence in co-culture |  |  |  | IC50 | 11.4 µM |
| COc1ccnc(C(=O)N[C@H]2COC(=O)[C@H](Cc3ccccc3)[C@@H](OC(=O)C(C)C)[C@H](C)OC2=O)c1OCOC(=O)C(C)C | Daphnia magna | immobilisation, semi-static water exposure |  | 48 h |  | EC50 | 0.00093 µg/mL |
| COc1c([N+](=O)[O-])oc2ccc3ccccc3c12 | Klebsiella aerogenes | REMA |  |  |  | MIC90 | > 32 µg/mL |
| COC1=CC(c2ccc[nH]2)=N/C1=C\c1[nH]c(C)cc1-c1ccccc1.Cl | Plasmodium yoelii |  | CF1 mice | oral, 10 mg/kg daily for 4 days, day 5 | relative to: vehicle | parasitaemia reduction | 6.73% |

| SMILES | organism | assay | system | setting | scale | endpoint | value |
| --- | --- | --- | --- | --- | --- | --- | --- |
| Cc1cccc(O)c1C(=O)O | Tetrahymena pyriformis and Klebsiella pneumoniae | virulence in co-culture |  |  |  | IC50 | 10.1 µM |
| CNC(C)C1CCC(N)C(OC2C(N)CC(N)C(OC3OCC(C)(O)C(NC)C3O)C2O)O1 (stereo not drawn) | Acinetobacter baumannii |  | 19606, biofilm | 25 µg/mL, without HNP1 |  | survival | 0% and 2.07% and 4.15% and 1.04% |
| CCc1c([N+](=O)[O-])oc2ccc3ccccc3c12 | Klebsiella aerogenes | REMA |  |  |  | MIC90 | 2 µg/mL (≈ 8.29 µM) |
| COC1=CC(c2ccc[nH]2)=N/C1=C\c1[nH]c(Cc2ccccc2)cc1Cc1ccccc1.Cl | Plasmodium yoelii |  | CF1 mouse | oral, 80 mg/kg single dose, day 5 |  | parasitaemia reduction | 100% |
| COc1cc2ccc3oc([N+](=O)[O-])cc3c2cc1OC | Mycolicibacterium aurum | REMA | ATCC 23366 |  |  | MIC90 | 1 µg/mL (≈ 3.66 µM) |
| C[C@@H]1O[C@@H](O[C@H]2C[C@@H](O)[C@]3(CO)[C@H]4[C@H](O)C[C@]5(C)[C@@H](C6=CC(=O)OC6)CC[C@]5(O)[C@@H]4CC[C@]3(O)C2)[C@H](O)[C@H](O)[C@H]1O | Oncopeltus fasciatus |  |  | diet, concentration not given |  | time to adulthood | 23.3 days |
| COc1cnc(OC)n2nc(NS(=O)(=O)c3c(OCC(F)F)cccc3C(F)(F)F)nc12 | Echinochloa crus-galli | fresh weight |  | 150 g ai/ha, post-emergence treatment |  | inhibition | 91.3% and 92.7% and 92.3% |
| Cc1ccc(N(c2ccc(NC(=O)CN(C)c3ccccc3N3CCCC3=O)cc2)C(C)C)cc1 | Plasmodium falciparum |  | Dd2-B2 | 60 days |  | minimum inoculum of resistance | 7.6 log10 parasites |
| COc1cc2oc([N+](=O)[O-])cc2c2ccccc12 | Klebsiella aerogenes | REMA |  |  |  | MIC90 | > 32 µg/mL |
| CC[C@H](C)[C@H](NC(=O)[C@H](C)NC(=O)[C@H](CCCCN)NC(=O)[C@H](CC(C)C)NC(=O)[C@H](C)NC(=O)[C@@H](NC(=O)[C@H](Cc1c[nH]cn1)NC(=O)[C@H](CC(C)C)NC(=O)[C@@H](NC(=O)[C@@H](NC(=O)[C@H](CCCCN)NC(=O)[C@H](C)NC(=O)[C@H](C)NC(=O)[C@H](CO)NC(=O)[C@H](CCCCN)NC(=O)[C@H](Cc1ccccc1)NC(=O)[C@@H](NC(=O)[C@H](CCCCN)NC(=O)[C@H](CC(C)C)NC(=O)[C@H](Cc1ccccc1)NC(=O)[C@H](CO)NC(=O)[C@H](CCCCN)NC(=O)[C@H](Cc1c[nH]c2ccccc12)NC(=O)[C@H](CCCCN)NC(C)=O)[C@@H](C)O)[C@@H](C)O)C(C)C)[C@@H](C)O)C(=O)N[C@@H](CO)C(=O)N[C@@H](CO)C(N)=O | Klebsiella pneumoniae |  | ATCC 700603 (ESBL) |  |  | MIC50 | 8 µg/mL (≈ 2.73 µM) |
| N=C(N)c1ccc(OCc2ccc(Br)cc2COc2ccc(C(=N)N)cc2)cc1 | Escherichia coli | checkerboard | mcr-1 polymyxin-resistant | unit not given, together with: rifampicin | lower = stronger synergy | FICI | ≤ 0.047 |
| COC1=CC(c2ccc[nH]2)=N/C1=C\c1cc(Cc2ccc(Cl)cc2)c(C)[nH]1.Cl | Plasmodium yoelii |  | CF1 mice | oral, 10 mg/kg daily for 4 days, day 5 | relative to: vehicle | parasitaemia reduction | 100% |
| COc1ccccc1CNC(=O)CCn1c(=O)[nH]c2ccsc2c1=O | Plasmodium yoelii | oxygen consumption | 17XL | 2 µM |  | inhibition | 2% |
| CSc1nc(C)c(Cl)c(O)n1 | Tetrahymena pyriformis and Klebsiella pneumoniae | virulence in co-culture |  |  |  | IC50 | 1.56 µM |
| CC1NC(=O)C(C(=O)NC(C(=O)NC2C(=O)N3C2SC(C)(C)C3C(=O)O)c2ccccc2)=C1O (stereo not drawn) | Escherichia coli | broth microdilution | isolate IU 356 A, KPC-3, VIM-1, TEM | together with: clavulanic acid 6 µg/mL |  | MIC | > 200 µg/mL |
| CN(C)[C@@H]1C(O)=C(C(N)=O)C(=O)[C@@]2(O)C(O)=C3C(=O)c4c(O)cccc4[C@@](C)(O)[C@H]3C[C@@H]12 | Acinetobacter baumannii |  | 19606, biofilm | 50 µg/mL, together with: HNP1 8 µM |  | survival | 84.5% and 87.4% and 68.5% and 78.3% and 73% |
| COc1nc(SC)nnc1C | Tetrahymena pyriformis and Klebsiella pneumoniae | virulence in co-culture |  |  |  | IC50 | > 20 µM |
| CCOC(=O)C1(Cc2ccccc2)CN(c2ccccc2)Cc2nnn(Cc3ccc(OC)cc3)c21 (stereo not drawn) | human adenovirus 2 | viral replication | HEL |  |  | EC50 | > 100 µM |

Repeated from above:
| SMILES | organism | assay | system | setting | scale | endpoint | value |
| --- | --- | --- | --- | --- | --- | --- | --- |
| COc1cnc(OC)n2nc(NS(=O)(=O)c3c(OCC(F)F)cccc3C(F)(F)F)nc12 | Echinochloa crus-galli | fresh weight |  | 150 g ai/ha, post-emergence treatment |  | inhibition | 91.3% and 92.7% and 92.3% |
| Cc1ccc(N(c2ccc(NC(=O)CN(C)c3ccccc3N3CCCC3=O)cc2)C(C)C)cc1 | Plasmodium falciparum |  | Dd2-B2 | 60 days |  | minimum inoculum of resistance | 7.6 log10 parasites |
